Published values collected from several papers.
A part holds a random share of what one study measured. Changes are numbered by the printed parent chain.

Set 1 — method: RNA Bind-n-Seq; form: RNA; sample: in vitro; concentration: 365 nM; relative to: no-protein control; direction: higher = stronger binding
Target: RNA binding protein fox-1 homolog 2, RRM domain, GST-SBP tag (RBFOX2, Homo sapiens, UniProt O43251-10, residues 100-194)
Notes: natural RNA segment, single round, ends assumed
Constant ends, left off below: GGGAGUUCUACAGUCCGACGAUC … UGGAAUUCUCGGGUGCCAA
Construct (chain): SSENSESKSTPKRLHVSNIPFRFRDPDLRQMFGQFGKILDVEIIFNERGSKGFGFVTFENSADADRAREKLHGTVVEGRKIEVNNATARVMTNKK
| Strand | RBNS enrichment (R) |
| --- | --- |
| UUUAGGCAGUGAGUAAUGCUUAUAAGCAAAUUACUGAAGGAUUUAAAAAUGGACAGCCAAUGUGUUCAGCCGCUCUGGCCUGUACCCCCUGGGGCCUCUAGUGUAUUGUA | 0.872 |
| AGUCCUGCAUCUUCUGUGUAGUAACAGGGUCCUUCGGGCUCCACAGUCAGUGCAGGUGGCUAGUCAUGUGUACUUCUGAUUGACCAAAUAGCACAUGUGUGGAAACACCC | 0.431 |
| UAGAACAAACUAGUGACCAAAUUGUCAUCUGCUAGUAUGGAAGUUCUUAGUUUUCUUAACCAUGCUUUAUGUCUUGUCCAGGUAUGUCAGUCCAGUUUCCAUGACGUACC | 2.34 |
| AAGUUCUAGAUCUUACUUGGUUUCUUCUAGAAUCAGUCUUCAGGAAUGGAUUUUGUCACAAAUGGGGCAUGGGGGCUUUCUGAGGAAAUAACUACAAGUCUUGGUGGUGG | 1.04 |
| GGCACUUAAUAUUUUAAUUGUCUUAAGCUUUUUGAUGUAUAUAUCCUCUGGCCCCUUACAUGCUGCCAGAGGAGAAGGUGUUUGUUUGAGAUUCAUUCCACUUGAAGUGU | 0.527 |
| GAGCGGCGACGCAAGUACCACUGAAGAGGGGUCGCUGGAGGGCAUUGCAUGGCCGAGCAUAACUGCCCGCCCCACUCCGACCUAGGAAGAAUUCAACUGGCUGAACCUUC | 7.73 |
| CUGCUUAGAAGCAUGAGAAGCAUGAGAAUGGUAAUGUGUGCUAAACCUAUGUUUAACCAAUCUUUGCACCAAAGGACUUUUUCACCAAUUUAUUUUGUUAUUCUUCCAAA | 10.7 |
| AGCCAGCGACGUGGUGGUCAUCAGAAUAACUACAAGCCAUACUGAGAGGCAGCAGGAGCGGCCGAGUGACGACCGCACACGCUUUGUUUGGACGCGGAGUGAACACAAUU | 0.641 |
| UCUGGUGGGUGCUUCCUUCCUCUGCUGCCUAACUGAGUCUGGCACAGGCUUUCUGCCUUGCCAUGAGGAGGAGGUGUAGACUUGUGAGUGCUCUCUCCGCUCUGAGUGGC | 0.261 |
| UAUACAAAGAAACUACAUAUAGUUUUAUGAUUUAAGGUACUUAGAAAUGUUUAUGGUUAACAUUGUAUAUAUUUACAUAAAAUUUAAAGGUUUUGUAUAUGGGAUUUUCU | 0.962 |
| AGGGGAAUUUAGAGGGAAAAAAAAUCCAUGUUUUCUAUUUCCCAGGUUUUUAAAAAGUAGCUCUUCCCCAACCCCGUUGCUAGCUUGUUGCAAUAUAAAAGCCCUGGUGC | 0.642 |
| CUCUUCCUUCUGCUGUGUUCCUAUAGCCACUGGGCUAAUCUCCCCCUUGCUUUAGGCUGUAUAUAGCCCCCCCCAACCCCCCAGCACAGAUCCCUGCCCAUGCUGUUCCC | 0.879 |

Set 2 — method: protein binding microarray; form: double-stranded DNA, one strand shown; sample: in vitro; concentration: not given; relative to: not given; direction: higher = stronger binding
Target: Histone acetyltransferase KAT6A, winged helix 2, GST fusion (KAT6A, Homo sapiens, UniProt Q92794, residues 85-181)
Notes: 8-mer, flanks averaged, mean of 2 arrays, mostly near background
Target sequence (chain): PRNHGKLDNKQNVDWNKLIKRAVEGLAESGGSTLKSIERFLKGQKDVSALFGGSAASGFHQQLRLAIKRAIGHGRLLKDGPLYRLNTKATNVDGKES
| Strand | E-score |
| --- | --- |
| ACCAGAGC | 0.139 |
| AATCTAGG | -0.00285 |
| ATTCCGAC | 0.111 |
| CTCCCGAG | 0.07 |
| GGCACGGA | 0.0559 |
| GCAGAAGC | 0.195 |
| ATGCGTAA | -0.183 |
| GTGAACCA | 0.139 |
| CGGTATAA | 0.00705 |
| CCCTACAA | -0.0939 |
| CCCCGATA | -0.0158 |
| ACCAGCCT | -0.0372 |
| ACTTGGGC | -0.153 |
| GCGCTGTA | -0.0524 |
| AAATCAGC | 0.0867 |
| ACGCAGGA | 0.159 |
| TCATACAA | 0.0236 |
| ACCTAGCA | -0.102 |
| CACAAGAC | -0.0376 |
| AGGTCGCC | 0.0181 |
| CCAGCGTA | 0.115 |
| AGGGCAAG | 0.152 |
| ACTTCTTA | -0.208 |
| CTTGTGAA | 0.0674 |
| ACCTTGAC | 0.0293 |

Set 3 — method: protein-binding microarray; form: double-stranded DNA, one strand shown; sample: in vitro; concentration: not given; direction: higher = stronger binding
Target: Max-binding protein MNT, bHLH-zipper, MAX partner unstated (MNT, Homo sapiens, UniProt Q99583, residues 220-300)
Notes: k-mer, scored over probes, only values ≥0.25
Residues (chain): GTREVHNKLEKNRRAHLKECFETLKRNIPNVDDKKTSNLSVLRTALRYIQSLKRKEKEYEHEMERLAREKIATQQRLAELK
| Strand | E-score |
| --- | --- |
| GCACATGA | 0.451 |
| GGCACGCA | 0.25 |
| ACGTGGCC | 0.42 |
| AGCGTGGC | 0.387 |
| CGGCACGC | 0.356 |
| ATGTGCGC | 0.379 |
| CACGATGC | 0.36 |
| GTGCATGA | 0.345 |
| CTCGTGAA | 0.307 |
| TAGGGGCA | 0.26 |

Set 4 — target: CCND3, cyclin fold, Cln2 fusion (human); method: yeast growth competition, sequencing; sample: yeast; notes: weak parent motif; relative to: not given; direction: higher = stronger binding
Parent: KIF20B docking peptide (human); KRAKRKLYTSEIS; partner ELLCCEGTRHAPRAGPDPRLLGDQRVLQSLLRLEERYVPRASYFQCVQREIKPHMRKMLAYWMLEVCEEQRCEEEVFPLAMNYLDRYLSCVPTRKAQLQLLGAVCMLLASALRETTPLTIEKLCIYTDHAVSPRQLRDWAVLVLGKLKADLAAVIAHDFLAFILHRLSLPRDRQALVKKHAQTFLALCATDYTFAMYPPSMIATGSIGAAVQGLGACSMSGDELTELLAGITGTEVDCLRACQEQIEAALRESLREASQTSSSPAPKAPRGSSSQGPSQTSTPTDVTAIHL
| Substitution | normalised enrichment score |
| --- | --- |
| KRAKRKLATSEIS [Y8A] | -0.172 |
| KRAKRKLYTSAIS [E11A] | 0.197 |
| KRAKRKAYTSEIS [L7A] | 0.484 |
| KRAKRKLYTAEIS [S10A] | -0.235 |
| KRAKRKLYASEIS [T9A] | 0.19 |
| KRAKRALYTSEIS [K6A] | -0.0422 |

Set 5 — method: protein-binding microarray; form: double-stranded DNA, one strand shown; sample: in vitro; concentration: 2540 nM top; notes: 60-bp whole probe; together with: salmon DNA 0.4 mg/ml; relative to: random background probes; direction: higher = stronger binding; constant ends, left off below: GCCTAGCAC … GTCTTGATTCGCTTGACGCTGCTG
Target: Interferon regulatory factor 3, full length, phosphomimetic (IRF3, Homo sapiens, UniProt Q14653, residues 1-427, S386D/S396D/S398D/S402D/T404D/S405D)
Target sequence (chain): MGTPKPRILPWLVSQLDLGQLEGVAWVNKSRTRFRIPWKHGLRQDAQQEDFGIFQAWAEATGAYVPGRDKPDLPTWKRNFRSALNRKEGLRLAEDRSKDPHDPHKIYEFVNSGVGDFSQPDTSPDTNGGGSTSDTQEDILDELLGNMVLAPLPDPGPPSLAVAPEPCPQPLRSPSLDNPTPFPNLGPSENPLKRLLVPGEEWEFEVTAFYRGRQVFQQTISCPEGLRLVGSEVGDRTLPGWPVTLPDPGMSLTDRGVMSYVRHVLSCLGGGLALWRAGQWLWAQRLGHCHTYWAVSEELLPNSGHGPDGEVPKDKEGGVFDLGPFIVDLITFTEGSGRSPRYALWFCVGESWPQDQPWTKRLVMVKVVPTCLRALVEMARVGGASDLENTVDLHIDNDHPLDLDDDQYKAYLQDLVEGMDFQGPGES
| Strand | fitted relative affinity [z-score] |
| --- | --- |
| GACGAACTGAGTATCGATACGTGCTAG | 0.704 |
| TTAGGACTGAGGTTTCGGTTAGTGCTA | 3.3 |
| GACGGTTGCGGGACTGGGGACGTGCTA | 1.04 |
| GACGGTTTCGGGGTTCGGGACGTGCTA | 3.76 |
| GCCGATTTCGGGTATCGAGACGTGCTA | 2.37 |
| GACGGATTCGGTTTCGGGACGTGCTAG | 6.28 |
| GACGGTATCGGTCTCGGGACGTGCTAG | 4.38 |
| TTAGGAATGCTACTGCTTTAGTGCTAG | -0.481 |

Set 6 — method: RNA Bind-n-Seq; form: RNA; sample: in vitro; concentration: 200 nM; notes: whole 134-nt RNA, ends assumed; together with: 150 mM KCl; relative to: input library; direction: higher = stronger binding
Target: Ras GTPase-activating protein-binding protein 1, full length (G3BP1, Homo sapiens, UniProt Q13283)
Chain of UniProt Q13283 (whole entry, looked up): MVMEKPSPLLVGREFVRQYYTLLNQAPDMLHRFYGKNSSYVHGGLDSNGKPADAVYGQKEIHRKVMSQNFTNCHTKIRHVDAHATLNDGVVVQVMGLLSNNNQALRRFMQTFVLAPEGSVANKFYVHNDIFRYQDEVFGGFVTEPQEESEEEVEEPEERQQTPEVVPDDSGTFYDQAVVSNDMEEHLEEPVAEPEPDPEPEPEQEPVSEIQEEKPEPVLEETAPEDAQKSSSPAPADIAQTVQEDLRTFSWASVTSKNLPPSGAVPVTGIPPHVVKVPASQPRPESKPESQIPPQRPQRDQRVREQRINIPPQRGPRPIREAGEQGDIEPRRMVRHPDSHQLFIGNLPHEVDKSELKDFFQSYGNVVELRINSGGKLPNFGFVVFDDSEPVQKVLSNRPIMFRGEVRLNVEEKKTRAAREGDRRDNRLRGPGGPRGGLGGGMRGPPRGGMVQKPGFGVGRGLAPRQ
Constant ends, left off below: GGGAGUUCUACAGUCCGACGAUC … UGGAAUUCUCGGGUGUCAAGG
| Strand | log2 enrichment |
| --- | --- |
| CCUGUGCUACACAUCGUAUGUACCGAAUCAAAUUUUUUUAAACCCCCAAACCCCCCCAAAAAAGUAUUAUGUUACGCCGUUCGGAUCUGC | -0.145 |
| UAACUUUAGAGGAGGCUCUGAUGGAUAUGGCAGUGGACGUGGAUUUGGGGAUGGCUAUAAUGGGUAUGGAGGAGGACCUGGAGGUGGCAA | 0.35 |
| UAACUUUAGAGGAGGAUCUGAUGGAUAUGGCAGUGGACGUGGAUUUGGGGAUGGCUAUAAUGGGUAUGGAGGAGGACCUCGAGGUGGCAA | -0.0586 |
| UCCUGUGCUACACAUCGUAUGUACCGAAUCGGGAAAAAAAGGGAAAAAGGGUUUUUGGGAAAGUAUUAUGUUACGCCGUUCGGAUCUGCA | -0.47 |
| UGUGCUACACAUCGUAUGUACCGAAUCGGGGUUUUUGGGGAAAAAAAGGGGAAAAAAAGGGGAAAGUAUUAUGUUACGCCGUUCGGAUCU | -0.292 |
| GUCCUGUGCUACACAUCGUAUGUACCGAAUCGGGGUUUUUUUGGGGAAAGGGGAGGGGAAAGUAUUAUGUUACGCCGUUCGGAUCUGCAC | 0.306 |
| UCCUGUGCUACACAUCGUAUGUACCGAAUCGGGUUUUUUUGGGAAAAAGGGAAAAAGGGAAAGUAUUAUGUUACGCCGUUCGGAUCUGCA | -0.499 |
| UGGGAGGUGGAUUUUGUUUAUUGUUUUAGCUCAUUUCCAGGGGUGGGAAUUUUUUUUUAAUAUGUGUCAUGAAUAAAGUUGUUUUUGAAA | 0.215 |

Excerpt of the above (set 3):
| Strand | E-score |
| --- | --- |
| GCACATGA | 0.451 |
| GGCACGCA | 0.25 |
| ACGTGGCC | 0.42 |
| AGCGTGGC | 0.387 |
| CGGCACGC | 0.356 |
| ATGTGCGC | 0.379 |
| CACGATGC | 0.36 |
| GTGCATGA | 0.345 |
| CTCGTGAA | 0.307 |
| TAGGGGCA | 0.26 |
